# Assay results collected from several papers.
# Compare with care: the assays were run in different laboratories. Values joined by “and” are separate records of one study, mostly repeats; a detail may differ. ± gives the spread as reported.
Substance,test,test system,setting,scale,quantity,result
O=C(O)C[C@H](O)C[C@H](O)/C=C/c1c(C2CC2)nc2ccccc2c1-c1ccc(F)cc1,,male Sprague-Dawley rat (wild type),"oral, 5 mg/kg",,MRT(0-t),3.01 ± 0.84 h
CCCCN1CCCCC1C(=O)Nc1c(C)cccc1C (stereo not shown),convulsant,wild-type mouse,"intravenous, 3.75, 5 and 6.25 mg/kg, 15 s, ≤5 Hz, peak seizure",reference: baseline,EEG delta power increase,≥ 7 fold
CCCC[C@H](NC(C)=O)C(=O)N[C@H]1CCC(=O)NC[C@@H](C(=O)N[C@@H](Cc2c[nH]c3ccccc23)C(N)=O)NC(=O)[C@H](CCCNC(=N)N)NC(=O)[C@@H](Cc2ccccc2)NC(=O)[C@H](Cc2c[nH]cn2)NC1=O,,"CD Sprague Dawley rat, male, plasma","subcutaneous, 1.0 mg/kg daily, day 1",,Vd/F,1.15 L/kg
CS(=O)(=O)Nc1ccc(C(=O)O[C@@H](Cc2c(Cl)c[n+]([O-])cc2Cl)c2ccc(OC(F)F)c(OCC3CC3)c2)cc1OCC1CC1,,"human, plasma","inhalation, 1200 µg twice daily, day 1, median",,tmax,3 h
COc1ccc(C2=Nn3c(nnc3-c3cc(-c4ccc(Cl)cc4)n[nH]3)SC2C)cc1 (stereo not shown),,10% Solutol HS15 in water,,,maximum solubility,400 µg/mL
O=c1[nH]cc(F)c(=O)[nH]1,,"patients, plasma","intravenous, 2400 mg/m2 maintenance, cycle 1, twice-daily cohort, no vorinostat",,Css,347 ± 92 ng/mL
CCCC[C@H](NC(=O)CN1CCN(CC(=O)O)CCN(CC(=O)O)CCN(CC(=O)O)CC1)C(=O)N[C@H]1CC(=O)NCCCC[C@@H](C(N)=O)NC(=O)[C@H](Cc2c[nH]c3ccccc23)NC(=O)[C@H](CCCNC(=N)N)NC(=O)[C@@H](Cc2ccccc2)NC(=O)[C@H](Cc2c[nH]cn2)NC1=O [indium-111 labelled],,"B16/F1 melanoma-bearing C57 mouse, female","intravenous, dose not given, 2 h, added: NDP blockade",,urinary excretion,92.2 ± 1.56%
CS(=O)(=O)n1cc2c(n1)CN([C@H]1CO[C@H](c3cc(F)ccc3F)[C@@H](N)C1)C2,,"healthy male human, plasma","oral, 100 mg once weekly, day 15, fasted, geometric mean",,concentration at 168 h,61.1 nM
CC(=O)c1nn(CC(=O)N2C[C@H](F)C[C@H]2C(=O)Nc2cccc(Br)n2)c2ccc(-c3cnc(C)nc3)cc12,,"Dutch Belted rabbit, plasma","oral, 15 mg/kg single dose",,mean residence time (0-t),5.58 h
N=C(N)NC(=O)c1cnn(-c2cccc3ncccc23)c1C1CC1,,"Sprague-Dawley rat liver S9, male","1 µM, added: hydralazine 50 µM, no NADPH",,CLint,9.7 ± 1.9 mL/min/kg
CC(C)[C@H](N)C(=O)OCC1(CO)C/C1=C/n1cnc2c(=O)[nH]c(N)nc21.Cl (mixture of isomers),measured: prodrug,"Swiss-Webster mouse (male), plasma","intravenous, 24.6 mg/kg, two-compartment model",,C0 distribution phase,36500 ng/mL
CCCC[C@@H]1NC(=O)[C@@H](NC(=O)[C@H](CCC(=O)O)NC(=O)CNC(=O)CN2CCN(CC(=O)O)CCN(CC(=O)O)CCN(CC(=O)O)CC2)CCCCNC(=O)C[C@@H](C(N)=O)NC(=O)[C@H](C(C)C)NC(=O)[C@@H]2CCCN2C(=O)[C@H](CCCNC(=N)N)NC(=O)CNC(=O)[C@H](Cc2c[nH]c3ccccc23)NC(=O)[C@H](CCCNC(=N)N)NC(=O)[C@@H](Cc2ccccc2)NC(=O)[C@H](Cc2c[nH]cn2)NC(=O)[C@H](CCC(=O)O)NC1=O [indium-111 labelled],,"normal C57 mice, spleen","intravenous, 0.037 MBq, 24 h",,tissue uptake,0.04 ± 0.03 %ID/g
C[C@H](Oc1ccc(-c2nc(-c3ccc4[nH]cnc4c3)no2)cc1C(F)(F)F)C(F)(F)F,,"cynomolgus monkey, aneurysm model, plasma","0.1 mg/kg once daily, 8 h post-dose, 2 weeks dosing",,plasma concentration,13 ± 2.6 nM
CCN1CCN(c2ccc(Nc3cc(N(C)C(=O)Nc4c(Cl)c(OC)cc(OC)c4Cl)ncn3)cc2)CC1,LC-MS/MS,"juvenile female Crl:WI(Han) rats, plasma","oral gavage, 0.3 mg/kg/day, postnatal day 17",,half-life,4.21 h
C=CC(=C)CC[C@]1(C)[C@H](C)C[C@H](OC)[C@@]23C(=C[C@H](OC(=O)C(C)C)C[C@@H]12)[C@@H](OC(C)=O)O[C@H]3OC(C)=O,haemolysis,,20 µM,,haemolysis,14.4%
O=C(/C=C/c1ccc(O)c(O)c1/C=C/c1ccc(O)c(O)c1)O[C@H](Cc1ccc(O)c(O)c1)C(=O)O,UPLC-MS/MS,"Wistar rat, microcirculation dysfunction model, plasma","oral, 100 mg/kg Salvia miltiorrhiza stem-leaf extract FS",,MRT(0-t),8.55 ± 1.65 h
Cc1c2c(n(-c3ccc(Cl)cc3Cl)c1-c1ccc(OS(=O)(=O)CCC(F)(F)F)cc1)CCN(N1CCCCC1)C2=O,,"cynomolgus monkey 2, plasma","intravenous infusion, 0.3 mg/kg, 90 min, PET study midpoint",,plasma concentration,143 nM
COc1cccc(N2CCN(C3=Nc4c(F)cccc4[C@H](CC(=O)O)N3c3cc(C(F)(F)F)ccc3OC)CC2)c1,UHPLC-MS/MS,"healthy women, plasma","intravenous infusion, 960 mg single dose, 60 min infusion, HPβCD formulation",,elimination rate constant,1.63e-05 ± 5.1e-06 s⁻¹
Cc1nc2cccc(OCC(C)(C)C(=O)NC(C)C)c2c(N)c1C(=O)O,,"female Sprague-Dawley rat, plasma","intravenous, 1 mg/kg, single dose",,Vd,0.321 L/kg
Nc1nc2c(ncn2COCCO)c(=O)[nH]1,,excised rabbit cornea,"1 mM, 3 h, pH 7.4, added: L-alanine 5 mM",,Papp,2.06 ± 0.69 ×10⁻⁶ cm/s
CC1(C)C2CC[C@]1(C)C(=O)/C2=C/c1cc2ccccc2o1,,human red blood cells,"10 to 300 µg/mL, 30 min",,maximum hemolysis,< 15%
CN[C@@H]1[C@H](O)[C@H](NC)[C@H]2O[C@]3(O)[C@H](O[C@@H]2[C@H]1O)O[C@H](C)C[C@H]3NC(=O)Cc1cc(Cl)c(OC)cn1,glutathione conjugation,rat liver S9,"100 µM, 2 h, pH 7.4, added: glutathione 0.2 mM",,parent remaining,81.1%
CC(C)NC[C@@H](C(=O)N1CCN(c2ncnc3c2[C@H](C)C[C@H]3O)CC1)c1ccc(Cl)cc1,,"human, normal hepatic function, plasma","oral, 100 mg single dose, reference group versus Moderate",reference: NCI classification,AUC(0-∞),304 ng·h/mL
O=C1CCc2ccccc2CC(=O)c2ccccc2N1,nephelometry,aqueous buffer,"30 min, pH 6.5",,kinetic solubility,25 to 50 µg/mL
CCCCCCCCCCCCCCCCCCOP(=O)([O-])OC1CC[N+](C)(C)CC1,,"rhesus monkey, male, plasma","oral, 7 mg/kg, single dose, median of 3",,terminal half-life,193 h
CO/N=C1\CCc2ccccc2C(=O)Nc2ccccc21,nephelometry,aqueous buffer,"30 min, pH 6.5",,kinetic solubility,> 100 µg/mL
S=C(NCCCc1c[nH]cn1)NCCCN(Cc1ccc(Cl)c(Cl)c1)c1ccc(Br)cn1,,"male C57BL/6 mice, plasma","intraperitoneal, 30 mg/kg, 4 h",,plasma concentration,2560 ng/mL
COCCNCC(O)Cn1c2ccc(Cl)cc2c2cc(Cl)ccc21 (stereo not shown),,0.1 M sodium acetate with 0.01% Triton X-100,pH 5.5,,maximum solubility,100 µM
COc1cc(Nc2ncc3c(n2)-c2ccc(Cl)cc2C(c2c(F)cccc2OC)=NC3)ccc1C(=O)O,,"children, plasma","oral, 80 mg/m2 once daily, day 4 of cycle 1, median",,trough concentration,1300 nM
CCn1c(=O)c2c(nc(/C=C/c3ccc(O)c(OC)c3)n2C)n(CC)c1=O,,"healthy humans, plasma","oral, 40 mg, added: rifampin 600 mg/day",,metabolite to parent Cmax ratio,0.0778
CS(=O)(=O)OC[C@H](O)[C@@H](O)COS(C)(=O)=O,,"Wistar rat, female, red blood cells and plasma","intraperitoneal, 500 mg/kg, 4 h",,RBC/plasma partition coefficient,0.79 and 0.8 and 0.85
CNc1nc(Nc2ccc(-n3cnc(C)n3)c(OC)c2)nc2c1CC[C@H]2c1ccc(F)cc1,,"human, plasma","oral, 300 mg, single dose, fed",,AUC(0-t),19400 ng·h/mL
C=CC(=O)Nc1cc(Nc2nccc(-c3cn(C)c4ccccc34)n2)c(OC)cc1N(C)CCN(C)C,,"Sprague-Dawley rat, male, plasma","oral, 10 mg/kg, added: avitinib 30 mg/kg daily for 7 days",,MRT(0-t),11.2 ± 0.93 h
O=C(c1cc(Cc2n[nH]c(=O)c3ccccc23)ccc1F)N1CCN(C(=O)C2CC2)CC1,,cancer patients,"oral, 400 mg twice daily, day 28, added: pegylated liposomal doxorubicin",,Cmin,3900 ± 2600 ng/mL
liraglutide,ELISA,human plasma,"10 nM, time not given",reference: target concentration,recovery,59%
O=S(=O)(c1cc(F)c(O)c2ncccc12)C1CCCC1,,"rat Sprague-Dawley male, brain","oral, 10 mg/kg, 4 h",,free concentration,12.8 nM
CCCCCCCCCCCCCNCC(=O)N(CC(=O)N(CCCCN)CC(=O)N(CCCCN)CC(=O)N(CC(N)=O)C1CCCCC1)C1CCCCC1,preparative RP-HPLC C18,water to acetonitrile gradient,0.05% TFA in eluent,higher = more hydrophobic,acetonitrile at elution,67.4%
C[C@]12CC[C@@H]3c4ccc(O)cc4CC[C@H]3[C@@H]1C[C@@H](O)[C@@H]2O,GC-MS,"breast cancer women on NSAI, serum","vaginal, 0.03 mg, 1 h, day 0",,minimum serum concentration,0 ng/mL
CCCOc1ccc([C@H]2CNC(=O)N2c2ccc3[nH]cnc3c2)cc1,,"human volunteers fasted, plasma","oral solution, 50 mg single dose, day 1, geometric mean",,AUC(0-12h),346 ng·h/mL
CN(C)C(=O)c1cc2cnc(Nc3ccc(N4CCNCC4)cn3)nc2n1C1CCCC1,,"human, severe renal impairment","oral, 400 mg, 0 to 144 h, geometric mean",,amount excreted in urine,11.4 mg

# For quick reference, copied from above:
Substance,test,test system,setting,scale,quantity,result
COc1cc(Nc2ncc3c(n2)-c2ccc(Cl)cc2C(c2c(F)cccc2OC)=NC3)ccc1C(=O)O,,"children, plasma","oral, 80 mg/m2 once daily, day 4 of cycle 1, median",,trough concentration,1300 nM
CCn1c(=O)c2c(nc(/C=C/c3ccc(O)c(OC)c3)n2C)n(CC)c1=O,,"healthy humans, plasma","oral, 40 mg, added: rifampin 600 mg/day",,metabolite to parent Cmax ratio,0.0778
CS(=O)(=O)OC[C@H](O)[C@@H](O)COS(C)(=O)=O,,"Wistar rat, female, red blood cells and plasma","intraperitoneal, 500 mg/kg, 4 h",,RBC/plasma partition coefficient,0.79 and 0.8 and 0.85
CNc1nc(Nc2ccc(-n3cnc(C)n3)c(OC)c2)nc2c1CC[C@H]2c1ccc(F)cc1,,"human, plasma","oral, 300 mg, single dose, fed",,AUC(0-t),19400 ng·h/mL
C=CC(=O)Nc1cc(Nc2nccc(-c3cn(C)c4ccccc34)n2)c(OC)cc1N(C)CCN(C)C,,"Sprague-Dawley rat, male, plasma","oral, 10 mg/kg, added: avitinib 30 mg/kg daily for 7 days",,MRT(0-t),11.2 ± 0.93 h
O=C(c1cc(Cc2n[nH]c(=O)c3ccccc23)ccc1F)N1CCN(C(=O)C2CC2)CC1,,cancer patients,"oral, 400 mg twice daily, day 28, added: pegylated liposomal doxorubicin",,Cmin,3900 ± 2600 ng/mL
